Experimental data pooled from the literature.
Each line is one published result; not all experiments were run side by side. ± gives the spread as reported.
Organism: Plasmodium falciparum

| SMILES | test | system | setting | how to read | endpoint | result |
| --- | --- | --- | --- | --- | --- | --- |
| Cc1nc(-c2ccc(OCC(C)C)c(C#N)c2)sc1C(=O)O |  | FVO, purified merozoites, erythrocytes | 25 µM |  | merozoite invasion | 100% |
| CCCCN1[C@@H]2CC[C@H]1C[C@@H](OC(c1ccc(F)cc1)c1ccc(F)cc1)C2 |  | HB3 |  |  | IC50 | 1000 nM |
| Cn1cc(-c2ccc3ccn(CC(=O)Nc4ccccc4Cl)c3c2)cn1 | parasite growth | Dd2 PfATP4 F156L |  | reference: parental Dd2 | EC50 shift | ~2 fold |
| O=C(c1cc2ccccc2[nH]1)N1CC[C@]2(C1)C[C@H](Nc1ccncn1)C2 |  | PSAC-resistant lines | concentration not given | reference: parental 3D7A | sorbitol lysis protection | decreased |
| CCc1nnc(-c2ccc3ccn(CC(=O)Nc4cc(OC)c(OC)c(OC)c4)c3c2)o1 |  | 7G8 |  | reference: 7G8 over 3D7 | EC50 fold shift | 2 fold |
| C[C@]12C=CC(=O)C=C1CC[C@@H]1C2=CC[C@]2(C)[C@@H](C(=O)CN3CCN(c4cc(N5CCCC5)nc(N5CCCC5)n4)CC3)CC[C@@H]12 |  | D10 |  |  | IC50 | 1260 nM |
| O=C(O)c1ccc(-n2nc(-c3ccccc3O)nc2-c2ccccc2O)cc1 | parasite growth, inhibitor, SYBR Green I | Cam3.1 R539T (MRA-1240) |  |  | IC50 | > 100000 nM |
| CC(C)C[C@@H](CC(=O)N[C@@H](CCCN)CC(=O)N[C@@H]1CCNC[C@H]1C(=O)N[C@H](CC(=O)N[C@@H](CCC(=O)O)CC(=O)O)CC(C)C)NC(=O)[C@@H]1CCCC[C@H]1N | SYBR Green | FVO | concentration not given, 36 h |  | growth inhibition | inactive |
| CC(C)CN1CCc2ccc(Br)cc21 |  | 3D7 |  |  | IC50 | 10000 nM |
| CC(=O)Nc1sc(C)c(C)c1CN1CCc2ccccc2C1 | parasite growth, SYBR Green |  | 72 h | reference: 3D7-E182D over 3D7 | EC50 ratio | 2.6 |
| CCCC1O[C@@H]2C[C@H]3[C@@H]4CCC5=CC(=O)C=C[C@]5(C)[C@H]4[C@@H](O)C[C@]3(C)[C@]2(C(=O)CO)O1 (stereo partly drawn) |  | W2 |  |  | IC50 | 2510 nM |
| Cc1cc(=O)oc2c1ccc1oc(C(O)c3ccc(Cl)cc3)c(C)c12 (stereo not drawn) | parasite growth, SYBR Green | 3D7 wild type | 72 h |  | EC50 | 65.1 ± 23 nM |
| CC(C)[C@@H](CC(=O)N[C@@H]1CCCC[C@H]1C(=O)N[C@H](CC(=O)N[C@@H](CCC(=O)O)CC(=O)O)Cc1ccccc1)NC(=O)C[C@H](CO)NC(=O)[C@@H]1CNCC[C@H]1N | SYBR Green | FVO | concentration not given, 36 h |  | growth inhibition | inactive |
| Cn1nc2c(=O)n(C3CC3)cnc2c1[C@](O)(c1cnc(C(F)(F)F)c(Cl)c1)C(F)(F)F |  | Pf3D7^0087/N9, mouse, plasma |  |  | unbound plasma average concentration at ED90 | < 38 nM |
| Cc1ccc2c(c1)CC[C@@](CCN(C)CCCc1nc3ccccc3[nH]1)(OC(=O)C1CC1)[C@H]2C(C)C |  | 3D7 |  |  | IC50 | 3160 nM |
| Cn1nc(C(=O)N2CCC(c3[nH]ncc3Cc3ccccc3)CC2)c2ccccc2c1=O | parasite growth, SYBR Green |  | 72 h | reference: 3D7-E182D over 3D7 | EC50 ratio | 3.3 |
| COc1ccccc1N1CCN(CCCCNC(=O)c2ccc3ccccc3c2)CC1 |  | 7G8 |  |  | IC50 | 6310 nM |
| COc1ccc(-n2ccnc2SCC(=O)Nc2cc(Cl)ccc2OC)c(OC)c1 | parasite growth, SYBR Green | 3D7 wild type | 72 h |  | EC50 | 1020 ± 350 nM |
| O=C1C(O)=C([C@H]2CC[C@H](c3ccc(Cl)cc3)CC2)C(=O)c2ccccc21 |  | C2B | 72 h | reference: C2B over 3D7 | resistance index | 3350 |
| COc1ccc(NC(=O)CCNc2cc(C)nc(NCCc3ccc(F)cc3)n2)cc1 | parasite growth, SYBR Green | 3D7 wild type | 72 h |  | EC50 | 843 ± 150 nM |
| CN(CC(=O)Nc1ccc(N(C)c2ccc(Cl)cc2)cc1)c1ccccc1N1CCCC1=O | parasite growth, LDH | 3D7 population A | 72 h |  | EC50 | 187 nM |
| CC(Oc1ccc(C(=O)c2ccc(F)cc2)cc1)C(=O)N1CCc2ccccc21 (stereo not drawn) | parasite growth, SYBR Green | 3D7 wild type | 72 h |  | EC50 | 193 ± 33 nM |
| CC(CCc1ccccc1)NC(C)C(O)c1ccc(O)cc1 (stereo not drawn) |  | Dd2 |  |  | IC50 | 6310 nM |
| Cc1cc(Nc2ccc(C(F)(F)F)cc2)n2ncnc2n1 | parasite growth, SYBR Green | 3D7 wild type | 72 h |  | EC50 | 101 ± 29 nM |
| CC(C)C[C@H](NC(=O)[C@H](Cc1c[nH]c2ccccc12)NC(=O)CN1CCOCC1)C(=O)N[C@H](/C=C/S(C)(=O)=O)Cc1c[nH]c2ccccc12 |  | Dd2 β3 R190S CRISPR-edited | concentration not given |  | EC50 | 26 ± 1.4 nM |
| COCC(=O)O[C@]1(CCN(C)CCCc2nc3ccccc3[nH]2)CCc2cc(F)ccc2[C@@H]1C(C)C |  | HB3 |  |  | IC50 | 5010 nM |
| CCC(c1ccccc1)c1nn2c(-c3cccs3)nnc2s1 (stereo not drawn) | parasite growth, SYBR Green |  | 72 h | reference: 3D7-E182D over 3D7 | EC50 ratio | 2.9 |

A few entries again:
| SMILES | test | system | setting | how to read | endpoint | result |
| --- | --- | --- | --- | --- | --- | --- |
| C[C@]12C=CC(=O)C=C1CC[C@@H]1C2=CC[C@]2(C)[C@@H](C(=O)CN3CCN(c4cc(N5CCCC5)nc(N5CCCC5)n4)CC3)CC[C@@H]12 |  | D10 |  |  | IC50 | 1260 nM |
| O=C(O)c1ccc(-n2nc(-c3ccccc3O)nc2-c2ccccc2O)cc1 | parasite growth, inhibitor, SYBR Green I | Cam3.1 R539T (MRA-1240) |  |  | IC50 | > 100000 nM |
| CC(C)C[C@@H](CC(=O)N[C@@H](CCCN)CC(=O)N[C@@H]1CCNC[C@H]1C(=O)N[C@H](CC(=O)N[C@@H](CCC(=O)O)CC(=O)O)CC(C)C)NC(=O)[C@@H]1CCCC[C@H]1N | SYBR Green | FVO | concentration not given, 36 h |  | growth inhibition | inactive |
| CC(C)CN1CCc2ccc(Br)cc21 |  | 3D7 |  |  | IC50 | 10000 nM |
